Measured values of several laboratories.
Each line is one published result; not all experiments were run side by side. Numbers after ± are the reported error.

Structure (SMILES) | assay | test system | setting | how to read | endpoint | result
Cc1cccc(CNC(=O)c2cn(CCNC(=O)c3ccccc3S)c3cc4c(cc3c2=O)OC(F)(F)O4)n1 |  | Sprague-Dawley rat, male, plasma | intravenous, 5 mg/kg of parent drug |  | AUC(0-t) | 102 ± 7.16 ng·h/mL
CN1CCC[C@H](CN2c3ccccc3Sc3ccccc32)C1.Cl |  | Wistar rat female, heart | oral, 16 mg/kg |  | AUC(0-t) | 13100 ng·h/mL
O=C1c2ccncc2C(=O)c2c1[nH]c1ccccc21 |  | Sprague-Dawley rat male, plasma | intravenous, 5 mg/kg |  | AUC(0-t) | 2.5 ± 1.29 µM·h
COc1cc2nccc(Oc3ccc(NC(=O)NC4CC4)c(Cl)c3)c2cc1C(N)=O |  | Sprague-Dawley rats male, plasma | oral, dose not given, together with: posaconazole | reference: without posaconazole | AUC(0-t) increase | 94.5%
COc1cccc(-c2n[nH]c(SCc3ccccn3)n2)c1OC |  | Sprague-Dawley rats, male, plasma | oral gavage, 100 mg/kg, single dose |  | AUC(0-t) | 183000 ng·h/mL
C1=C/COCc2cc(ccc2OCCN2CCCC2)Nc2nccc(n2)-c2cccc(c2)COC/1 | LC-MS/MS | Sprague-Dawley rat, male, plasma | oral, 36 mg/kg, together with: voriconazole 30 mg/kg oral |  | AUC(0-t) | 3840 ± 2190 ng·h/mL
COC[C@@H](CC(C)C)NC(=O)c1ccc(C)c(C)c1 |  | Sprague-Dawley rats, plasma | oral, 30 mg/kg | reference: female over male | AUC(0-t) ratio | 2.41
Cc1cccc(CNC(=O)c2cn(CCNC(=O)c3ccccc3Sc3c([N+](=O)[O-])ncn3C)c3cc4c(cc3c2=O)OC(F)(F)O4)n1 |  | Sprague-Dawley rat, male, whole blood | intramuscular, 30 mg/kg of parent compound |  | AUC(0-t) | 147 ± 87.7 ng·h/mL
C=CC(=O)N1CCC(Oc2cc3c(Nc4ccc(Cl)c(Cl)c4F)ncnc3cc2OC)CC1 |  | male Sprague-Dawley rats, plasma | oral, 2 mg/kg, together with: schisandrin B pretreatment 20 mg/kg daily 1 week |  | AUC(0-t) | 6020 ± 1560 ng·h/mL
CSc1ccccc1C(=O)NCCn1cc(C(=O)NCc2cccc(C)n2)c(=O)c2cc3c(cc21)OC(F)(F)O3 |  | Sprague-Dawley rat, male, whole blood | intramuscular, 3 mg/kg of parent compound |  | AUC(0-t) | 40.1 ± 10.6 ng·h/mL
CCCC(CCC)NC(=O)c1ccc2c(c1)OCO2 |  | Sprague-Dawley rats, plasma | oral, 200 mg/kg | reference: female over male | AUC(0-t) ratio | 1.06

Repeated from above:
Structure (SMILES) | assay | test system | setting | how to read | endpoint | result
Cc1cccc(CNC(=O)c2cn(CCNC(=O)c3ccccc3S)c3cc4c(cc3c2=O)OC(F)(F)O4)n1 |  | Sprague-Dawley rat, male, plasma | intravenous, 5 mg/kg of parent drug |  | AUC(0-t) | 102 ± 7.16 ng·h/mL
C1=C/COCc2cc(ccc2OCCN2CCCC2)Nc2nccc(n2)-c2cccc(c2)COC/1 | LC-MS/MS | Sprague-Dawley rat, male, plasma | oral, 36 mg/kg, together with: voriconazole 30 mg/kg oral |  | AUC(0-t) | 3840 ± 2190 ng·h/mL
